Measured values gathered from unrelated publications.
Compare with care: the assays were run in different laboratories. Several values in a cell are separate wells, animals, samples, runs or records.
Target: Receptor-interacting serine/threonine-protein kinase 2 (RIPK2, Homo sapiens, UniProt O43353)
Sequence of UniProt O43353 (whole entry, looked up): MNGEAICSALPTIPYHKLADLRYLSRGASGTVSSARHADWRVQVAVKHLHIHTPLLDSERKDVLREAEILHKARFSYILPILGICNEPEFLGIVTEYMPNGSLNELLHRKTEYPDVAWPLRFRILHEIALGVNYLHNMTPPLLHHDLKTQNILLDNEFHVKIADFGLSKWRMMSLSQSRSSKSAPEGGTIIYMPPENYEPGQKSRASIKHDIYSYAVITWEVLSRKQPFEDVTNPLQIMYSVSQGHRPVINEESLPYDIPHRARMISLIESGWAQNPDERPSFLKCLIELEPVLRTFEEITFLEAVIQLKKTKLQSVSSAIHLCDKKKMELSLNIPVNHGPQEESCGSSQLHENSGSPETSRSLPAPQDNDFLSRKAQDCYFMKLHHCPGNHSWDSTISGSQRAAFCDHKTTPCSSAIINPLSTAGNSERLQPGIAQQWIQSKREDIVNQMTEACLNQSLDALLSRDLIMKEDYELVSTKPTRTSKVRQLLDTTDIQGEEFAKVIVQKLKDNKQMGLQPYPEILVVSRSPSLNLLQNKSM

`CC(C)=CC1OC(C)(C)C2C=C3C(=O)C(Cl)=CC(O)C3C3C(O)C4OC4C(=O)C132` (centres unmarked) has a remaining binding of 100% (cell-free assay, competition with immobilised ligand; 10 µM).
`Cc1cnc2nc1Nc1cccc(c1)COC/C=C/COCc1cc(ccc1OCCN1CCOCC1)N2` has a remaining binding of 100% (binding, competition with immobilised ligand; 0.1 µM).
`c1ccc2c(Nc3cc(C4CCC4)[nH]n3)nc(Nc3ccc4nc[nH]c4c3)nc2c1` has a remaining activity of 18% (enzyme activity, inhibitor; 0.25 µM).
The inhibition of `CN1CCN(Cc2ccc(-c3ccc(CO[C@H]4CCC[C@@H]4NC(=O)c4cc(-c5cnn(C)c5)cnc4N)cc3)cc2)CC1` is reported as -1% (enzyme activity, inhibitor; 0.1 µM).
With `C=CC(=O)Nc1cccc(-c2cnc3[nH]cc(C(=O)NC(C)(C)C)c3n2)c1` the inhibition was 2% (enzyme activity, inhibitor; 0.1 µM).
The remaining binding of `COc1cc(Nc2nccc(-c3cnn4nc(OC)ccc34)n2)cc(C(F)(F)F)c1` is reported as 88% (binding, competition with immobilised ligand; 1 µM).
`Cc1ccc(-c2c(/C=C(\C#N)C(=O)NC(C)C)n(CCCO)c3ncnc(N)c23)cc1` gave a remaining binding of 9.4% (cell-free assay, competition with immobilised ligand; 1 µM).
`CNC(=O)C1CCN(c2cc(C)c(F)cc2NC(=O)c2ccc(-c3cc(O)ccc3C)c(C)c2)CC1` gave a remaining binding of 40% (binding, competition with immobilised ligand; 1 µM).
With `C=CC(=O)N1CCc2ccc(-n3c(=O)ccc4cnc5ccc(-c6cnn(C)c6)cc5c43)cc21` the remaining binding was 75% (KINOMEscan; 1 µM; relative to: DMSO control).
For `O=C(Nc1ccc(Oc2ncnc3[nH]cc(-c4ccccc4)c23)c(F)c1)c1c2n(n(-c3cc(F)ccc3F)c1=O)CCCC2`, the inhibition was 6% (enzyme activity, inhibitor; 0.5 µM).
With `Nc1ncc(-c2cc(-c3cnn(CC(F)(F)F)c3)ncc2F)nc1C(=O)NC1CNCC(F)C1` (centres unmarked) the remaining activity was 77.8% (enzyme activity; 1 µM; relative to: DMSO control).
For `NC(=O)C[C@H]1CCc2sc3ncnc(O[C@H]4CC[C@H](N5CCOCC5)CC4)c3c21`, the inhibition was 7% (enzyme activity, inhibitor; 10 µM).
`N[C@H]1CC[C@H](Nc2nccc(-c3cccnc3Oc3ccc(NC(=O)NC4CC4)c4ccccc34)n2)CC1`: “log2 LFQ intensity” 22.1 and 18.9 and 21.9 (kinobead competition pulldown; HEK293/HCT116 lysate mixture; 10 µM, 1 h, 4 °C; lower = stronger competition).
The remaining binding of `Nc1ncc2c(n1)-c1c([nH]c3ccc(C4=CCOCC4)cc13)CCC2` is reported as 99% (binding, competition with immobilised ligand; 1 µM).
With `Cc1cccc(O[C@H]2CCC[C@@H](C(C)CNCc3ccncc3)C2)c1` (relative stereo) the inhibition was -1% (enzyme activity, inhibitor; 1 µM).
`CNC1C[S+]2CC[S+]3CC[S+](C1)[Ru-4]321([N]=C=S)[n]2c3ccc(OC)cc3c3c4c(c5cc(F)c[n+]1c5c32)C(=O)NC4=O` (centres unmarked) has a remaining binding of 100% (KinomeScan; 0.1 µM; relative to: untreated).
For `O=C(Cc1ccc(OCc2ccccc2)cc1)NC1(C(=O)O)CCN(C(=O)c2ccc(-c3cccc(Cl)c3)cc2)CC1`, “activity vs control” read 120% (enzyme activity, inhibitor; 10 µM).
